Assay results collected from several papers.
Each line is one published result; not all experiments were run side by side. “And” joins repeats or separate records; there may be more than shown. ± marks the error that the study gave.
CASP3: Caspase-3 (CASP3, Homo sapiens, UniProt P42574)
GBA2: Beta-glucosidase (GBA2, Homo sapiens, UniProt Q9HCG7)
B4GALT1: Beta-1,4-galactosyltransferase 1 (B4GALT1, Homo sapiens, UniProt P15291)
T1: preQ1-I riboswitch RNA, disruptive mutant; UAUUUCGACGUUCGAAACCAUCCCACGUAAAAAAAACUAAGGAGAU

| SMILES | target | assay | test system | conditions | scale | measurement | result |
| --- | --- | --- | --- | --- | --- | --- | --- |
| CC(=O)N[C@H](C(=O)N[C@@H](CCO)C(=O)N[C@H](C(=O)N[C@@H](CC(=O)O)C(=O)COC(=O)c1c(C)cccc1C)C(C)C)C(C)C | CASP3 | enzyme activity, inhibitor | – | – | – | kinact/KI | 41800 M⁻¹ s⁻¹ |
| N=C(N)c1ccc(-c2ccc(-c3ccc(C(=N)N)cc3)n2-c2ccccc2)cc1 | PRMT5 (Homo sapiens, UniProt O14744) | enzyme activity, inhibitor, radiometric | – | 20 µM | – | remaining activity | 53.8% |
| N#Cc1cccc(-c2ccc(COCCCCCN3C[C@H](O)[C@@H](O)[C@H](O)[C@H]3CO)cc2)c1 | GBA2 | inhibitor, 4MU-β-D-glucopyranoside | HEK293T homogenates overexpressing GBA2 | – | baseline: GCS IC50 over GBA2 IC50 | selectivity ratio | 25 |
| CN1Cc2ccccc2CC1C(=O)N1CCN(c2cc(=O)[nH]c(N)n2)CC1 (stereo not shown) | B4GALT1 | enzyme activity, inhibitor, UDP-Glo | – | 10 µM | lower means stronger inhibition | luminescence | 65200 a.u. |
| COc1ccccc1-c1ccncc1C(=O)Nc1nnc(OCc2ccc(Cl)cc2)s1 | DNA polymerase theta, helicase domain (POLQ, Homo sapiens, UniProt O75417) | ATPase activity, ADP-Glo | – | 0.015 µM, with: ATP 400 µM | – | remaining activity | 68% |
| CC(=O)NCCCC[C@H](NC(C)=O)C(=O)N[C@@H](CCCC(=O)O)C(=O)N[C@@H](C)C(=O)N[C@@H](CC(=O)O)C(=O)COC(=O)c1c(C)cccc1C | CASP3 | enzyme activity, inhibitor | – | – | – | kinact/KI | 27800 M⁻¹ s⁻¹ |
| CC(C)=CCC/C(C)=C/CC/C(C)=C/COCCCCCN1C[C@H](O)[C@@H](O)[C@H](O)[C@@H]1CO | GBA2 | inhibitor, 4MU-β-D-glucopyranoside | HEK293T homogenates overexpressing GBA2 | – | baseline: GBA1 IC50 over GBA2 IC50 | selectivity ratio | 500 |
| Cc1cc(=O)oc2cc(NC(=O)CCCCCCC(=O)NO)ccc12 | HDAC8 (Homo sapiens, UniProt Q9BY41) | ITC | Tris-HCl buffer | 278 K | – | TΔS° | 18.7 kJ/mol |
| OC[C@@H]1[C@@H](O)[C@H](O)[C@@H](O)CN1CC(F)(F)CCCOCc1ccc(-c2ccccc2)cc1 | GBA2 | inhibitor, 4MU-β-D-glucopyranoside | HEK293T homogenates overexpressing GBA2 | – | baseline: GCS IC50 over GBA2 IC50 | selectivity ratio | 125 |
| CN1CCCN(CC(=O)NC2CCc3c[nH]nc3C2)CC1 (stereo not shown) | B4GALT1 | enzyme activity, inhibitor, UDP-Glo | – | 10 µM | lower means stronger inhibition | luminescence | 60000 a.u. |
| O=C(Nn1c(-c2cccc(Cl)c2)nc2ccccc2c1=O)c1ccccc1 | TRPM channel TRPM_PZQ (Schistosoma mansoni, UniProt A0A5K4F0X5) | cell-attached patch clamp | – | 10 µM | – | single channel conductance | 152 ± 12 pS |
| OC[C@H]1[C@@H](O)[C@H](O)[C@@H](O)CN1CCCCCOCc1ccc(-c2ccccc2)cc1C(F)(F)F | GBA2 | inhibitor, 4MU-β-D-glucopyranoside | HEK293T homogenates overexpressing GBA2 | – | baseline: GBA1 IC50 over GBA2 IC50 | selectivity ratio | 50000 |
| CC[C@H](C)[C@H](NC(C)=O)C(=O)N[C@@H](CCC(=O)O)C(=O)N[C@H](C(=O)N[C@@H](CC(=O)O)C(=O)COC(=O)c1c(C)cccc1C)[C@@H](C)O | CASP3 | enzyme activity, inhibitor | – | – | – | kinact/KI | 106000 M⁻¹ s⁻¹ |
| OC[C@H]1[C@@H](O)[C@H](O)[C@@H](O)CN1CCCCCOCc1ccc(-c2ccccc2)c(C(F)(F)F)c1 | GBA2 | inhibitor, 4MU-β-D-glucopyranoside | HEK293T homogenates overexpressing GBA2 | – | baseline: GBA1 IC50 over GBA2 IC50 | selectivity ratio | 60000 |
| Cc1nc2ccc(S(=O)(=O)n3nc(SCc4ccc(Cl)cc4)nc3N)cc2s1 | LYPLAL1 (Homo sapiens, UniProt Q5VWZ2) | enzyme activity, activator, gel-based ABPP | purified protein | concentration not given, with: FP-rhodamine | baseline: DMSO | probe labeling increase | 2.5 fold |
| NCc1c[nH]c2nc(N)[nH]c(=O)c12 | T1, preQ1-I riboswitch RNA, disruptive mutant | in-line probing | – | 35-45 h | – | binding | no binding |
| N#CN1CC[C@H](C(=O)Nc2nc3c(s2)CN(C(=O)Cn2cc(COCCOCCOCCOCCNC(=O)CCCC[C@@H]4SC[C@@H]5NC(=O)N[C@@H]54)nn2)CC3)C1 | USP9X (Homo sapiens, UniProt Q93008) | probe binding, affinity probe, neutravidin pull-down LC-MS/MS | HEK293T, cell lysate | 5 µM, 1 h, mean of three replicates, unit not given | higher = more pulled down | iBAQ abundance | 1.94e+06 |
| O=C1c2sc(-c3ccc(N4CCC(CO)CC4)nc3F)nc2CCN1c1cccnc1 | ADRA2A (Homo sapiens, UniProt P08913) | ligand displacement, radioligand | – | 1 µM | – | inhibition | 2% |
| N=C(N)NCCS(=O)(=O)O | SLC6A6 (Homo sapiens, UniProt P31641, Y138A) | binding, microscale thermophoresis | – | 31 nM, fitted curve | higher = more binding | fraction bound | 0 |
| N[C@H]1CC[C@H](Nc2nccc(-c3cccnc3Oc3ccc(NC(=O)NC4CC4)c4ccccc34)n2)CC1 | TRIM28 (Homo sapiens, UniProt Q13263) | kinobead competition pulldown | HEK293/HCT116 lysate mixture | 10 µM, 1 h, 4 °C | lower = stronger competition | log2 LFQ intensity | 22.2 and 22.8 and 22 |
| CCOC(=O)C1CC(C)C2C=CC3CCN(C(=O)C4CCC5C=CC6(CCCN6C(=O)C(Cc6ccccc6Cl)NC(C)=O)C(=O)N54)C3C(=O)N12 (stereo not shown) | Vasodilator-stimulated phosphoprotein, EVH1 domain (VASP, Homo sapiens, UniProt P50552) | fluorescence titration | – | – | – | ligand efficiency | -680 J/(mol·heavy atom) |
| OC[C@@H]1[C@@H](O)[C@H](O)[C@@H](O)CN1CCCCCOCc1ccc(-c2cccc(F)c2)cc1 | GBA2 | inhibitor, 4MU-β-D-glucopyranoside | HEK293T homogenates overexpressing GBA2 | – | baseline: GCS IC50 over GBA2 IC50 | selectivity ratio | 25 |
| COc1ccc(C2(C(=O)N3CCC(Nc4nc5ccccc5c(=O)[nH]4)CC3)CC2)cc1 | MRGPRD (Homo sapiens, UniProt Q8TDS7) | beta-arrestin recruitment, agonist, PRESTO-Tango | – | – | – | Hill slope | 1.41 |
| CC(C)Oc1cc(Cl)ccc1CNc1cc(-c2ccccc2)nc2ncnn12 | GPR3 (Homo sapiens, UniProt P46089) | cAMP reporter | human cells | 10 µM | higher is more cAMP | cAMP luminescence | 11900 a.u. and 13200 a.u. and 1690 a.u. and 2680 a.u. and 1640 a.u. and 6170 a.u. and 2800 a.u. and 2300 a.u. |
| CCCCCCCCCCCCCCCC(=O)N[C@@H](CCC(=O)O)C(=O)NCCCC[C@H](NC(=O)[C@H](CCC(N)=O)NC(=O)[C@H](Cc1c[nH]cn1)NC(=O)[C@H](CCCC)NC(=O)[C@H](CC(C)C)NC(=O)[C@H](CCC(N)=O)NC(=O)[C@@H](NC(=O)[C@H](CCC(=O)O)NC(=O)C(C)(C)NC(=O)[C@@H](NC(=O)C1(N)CCCC1)C(C)C)[C@@H](C)CC)C(N)=O | PTH1R (Homo sapiens, UniProt Q03431) | cAMP response, agonist, GloSensor cAMP | GP-2.3 | washout phase | – | Emax | 115 ± 6% |
| Fc1ccc(Nc2nc(NC3CCCCC3)c3cc(Br)ccc3n2)cc1F | ADRB2 (Homo sapiens, UniProt P07550, G162A) | β-arrestin2 recruitment, antagonist, BRET | – | mutant G162A | baseline: isoprenaline maximal response | maximal inhibition | 6.6% |
| OC[C@@H]1[C@@H](O)[C@H](O)[C@@H](O)CN1CCCCCOCc1ccc(-c2cc(C(F)(F)F)cc(C(F)(F)F)c2)cc1 | GBA2 | inhibitor, 4MU-β-D-glucopyranoside | HEK293T homogenates overexpressing GBA2 | – | baseline: GBA1 IC50 over GBA2 IC50 | selectivity ratio | 53 |
| O=c1cc(NCCc2ccccc2)c2ccccc2o1 | ADRA1B (Homo sapiens, UniProt P35368) | intracellular Ca2+ mobilization, agonist | COS-7 | 500 µM | baseline: 3 µM ionomycin | agonist activity | 16.3 ± 2.13% |

Excerpt of the above:
| SMILES | target | assay | test system | conditions | scale | measurement | result |
| --- | --- | --- | --- | --- | --- | --- | --- |
| CC(C)=CCC/C(C)=C/CC/C(C)=C/COCCCCCN1C[C@H](O)[C@@H](O)[C@H](O)[C@@H]1CO | GBA2 | inhibitor, 4MU-β-D-glucopyranoside | HEK293T homogenates overexpressing GBA2 | – | baseline: GBA1 IC50 over GBA2 IC50 | selectivity ratio | 500 |
| Cc1cc(=O)oc2cc(NC(=O)CCCCCCC(=O)NO)ccc12 | HDAC8 (Homo sapiens, UniProt Q9BY41) | ITC | Tris-HCl buffer | 278 K | – | TΔS° | 18.7 kJ/mol |
